Measured values pooled from the literature.
Protocols differ between the studies behind these lines. Numbers after ± are the reported error.
Mc1r: Melanocyte-stimulating hormone receptor (Mc1r, Mus musculus, UniProt Q01727)
UniProt Q01727, sequence (whole entry, looked up): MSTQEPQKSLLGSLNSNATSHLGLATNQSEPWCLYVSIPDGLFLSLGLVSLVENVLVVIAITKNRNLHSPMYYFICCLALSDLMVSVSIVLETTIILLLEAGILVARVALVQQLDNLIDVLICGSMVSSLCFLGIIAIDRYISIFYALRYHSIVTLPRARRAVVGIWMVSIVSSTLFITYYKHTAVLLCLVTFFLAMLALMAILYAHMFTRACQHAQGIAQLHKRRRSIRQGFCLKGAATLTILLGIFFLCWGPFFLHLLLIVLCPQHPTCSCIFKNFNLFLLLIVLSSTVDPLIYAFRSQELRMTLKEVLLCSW
GRPR: Gastrin-releasing peptide receptor (GRPR, Homo sapiens, UniProt P30550)
UniProt P30550, sequence (whole entry, looked up): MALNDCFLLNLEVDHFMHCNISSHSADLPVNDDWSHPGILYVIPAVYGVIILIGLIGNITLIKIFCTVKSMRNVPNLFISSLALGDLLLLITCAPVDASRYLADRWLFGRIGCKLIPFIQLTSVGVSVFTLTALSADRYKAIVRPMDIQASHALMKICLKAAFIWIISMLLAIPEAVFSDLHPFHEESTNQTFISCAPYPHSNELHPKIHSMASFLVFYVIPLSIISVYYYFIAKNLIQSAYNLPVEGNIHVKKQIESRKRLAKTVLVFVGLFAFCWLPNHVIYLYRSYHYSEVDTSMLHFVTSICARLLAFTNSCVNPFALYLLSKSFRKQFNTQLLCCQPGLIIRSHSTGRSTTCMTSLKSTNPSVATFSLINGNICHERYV
CHRM1: Muscarinic acetylcholine receptor M1 (CHRM1, Homo sapiens, UniProt P11229)
UniProt P11229, sequence (whole entry, looked up): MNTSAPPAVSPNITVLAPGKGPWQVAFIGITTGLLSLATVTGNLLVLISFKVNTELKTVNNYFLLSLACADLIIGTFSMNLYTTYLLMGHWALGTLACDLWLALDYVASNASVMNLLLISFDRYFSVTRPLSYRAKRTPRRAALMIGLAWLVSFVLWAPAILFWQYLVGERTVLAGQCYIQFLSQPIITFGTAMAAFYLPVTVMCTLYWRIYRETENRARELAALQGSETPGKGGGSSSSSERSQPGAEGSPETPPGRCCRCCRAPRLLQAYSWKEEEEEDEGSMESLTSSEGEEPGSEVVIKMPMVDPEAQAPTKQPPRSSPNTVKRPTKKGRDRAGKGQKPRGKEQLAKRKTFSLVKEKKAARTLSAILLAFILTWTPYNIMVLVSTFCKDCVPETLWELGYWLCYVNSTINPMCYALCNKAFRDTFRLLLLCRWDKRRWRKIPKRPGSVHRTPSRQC
FPR1: fMet-Leu-Phe receptor (FPR1, Homo sapiens, UniProt P21462)
uidA: Beta-glucuronidase (uidA, Escherichia coli, UniProt P05804)
UniProt P05804, sequence (whole entry, looked up): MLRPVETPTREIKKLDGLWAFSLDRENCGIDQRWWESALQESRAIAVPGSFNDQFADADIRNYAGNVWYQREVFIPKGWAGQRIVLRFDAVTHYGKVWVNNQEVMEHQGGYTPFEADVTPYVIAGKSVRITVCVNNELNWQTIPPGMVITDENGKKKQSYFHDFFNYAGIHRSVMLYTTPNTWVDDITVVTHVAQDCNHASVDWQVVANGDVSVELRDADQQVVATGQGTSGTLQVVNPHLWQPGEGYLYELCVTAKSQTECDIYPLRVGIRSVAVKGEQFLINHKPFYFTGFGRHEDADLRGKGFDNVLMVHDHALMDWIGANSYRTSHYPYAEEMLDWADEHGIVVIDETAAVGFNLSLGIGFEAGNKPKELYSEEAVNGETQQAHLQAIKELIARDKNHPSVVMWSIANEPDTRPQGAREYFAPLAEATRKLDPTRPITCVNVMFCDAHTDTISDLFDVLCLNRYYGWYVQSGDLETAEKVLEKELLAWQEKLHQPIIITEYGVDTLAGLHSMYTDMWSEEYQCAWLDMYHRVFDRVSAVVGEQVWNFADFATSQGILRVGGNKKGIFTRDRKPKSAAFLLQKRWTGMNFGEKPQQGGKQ
UniProt P20309, sequence (whole entry, unmodified, looked up): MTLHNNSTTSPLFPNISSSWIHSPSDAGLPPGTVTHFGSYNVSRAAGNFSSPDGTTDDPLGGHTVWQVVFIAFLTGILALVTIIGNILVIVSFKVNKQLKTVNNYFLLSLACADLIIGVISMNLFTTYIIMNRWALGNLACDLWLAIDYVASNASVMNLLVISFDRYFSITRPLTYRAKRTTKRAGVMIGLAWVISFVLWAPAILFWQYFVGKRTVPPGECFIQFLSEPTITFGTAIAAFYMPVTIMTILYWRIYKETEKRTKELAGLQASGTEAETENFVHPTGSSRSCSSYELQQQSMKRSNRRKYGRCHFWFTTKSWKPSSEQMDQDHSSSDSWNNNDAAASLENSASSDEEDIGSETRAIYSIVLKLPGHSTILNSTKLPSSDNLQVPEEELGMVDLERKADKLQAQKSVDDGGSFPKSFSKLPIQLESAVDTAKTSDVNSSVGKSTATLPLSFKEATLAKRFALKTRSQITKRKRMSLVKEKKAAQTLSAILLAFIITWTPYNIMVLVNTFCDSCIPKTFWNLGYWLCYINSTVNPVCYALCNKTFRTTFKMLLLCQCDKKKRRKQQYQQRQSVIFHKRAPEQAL
UniProt P41145, sequence (whole entry, looked up): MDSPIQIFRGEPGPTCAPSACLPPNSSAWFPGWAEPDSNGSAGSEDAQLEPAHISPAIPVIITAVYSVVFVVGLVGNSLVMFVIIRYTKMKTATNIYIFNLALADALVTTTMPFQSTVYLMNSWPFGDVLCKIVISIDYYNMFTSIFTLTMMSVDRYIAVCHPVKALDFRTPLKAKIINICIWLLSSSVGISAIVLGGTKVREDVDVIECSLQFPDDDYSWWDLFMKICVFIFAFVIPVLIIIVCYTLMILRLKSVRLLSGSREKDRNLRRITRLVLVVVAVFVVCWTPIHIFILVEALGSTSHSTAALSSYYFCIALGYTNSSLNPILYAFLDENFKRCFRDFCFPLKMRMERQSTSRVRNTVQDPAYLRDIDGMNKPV
UniProt Q0P543, sequence (whole entry, looked up): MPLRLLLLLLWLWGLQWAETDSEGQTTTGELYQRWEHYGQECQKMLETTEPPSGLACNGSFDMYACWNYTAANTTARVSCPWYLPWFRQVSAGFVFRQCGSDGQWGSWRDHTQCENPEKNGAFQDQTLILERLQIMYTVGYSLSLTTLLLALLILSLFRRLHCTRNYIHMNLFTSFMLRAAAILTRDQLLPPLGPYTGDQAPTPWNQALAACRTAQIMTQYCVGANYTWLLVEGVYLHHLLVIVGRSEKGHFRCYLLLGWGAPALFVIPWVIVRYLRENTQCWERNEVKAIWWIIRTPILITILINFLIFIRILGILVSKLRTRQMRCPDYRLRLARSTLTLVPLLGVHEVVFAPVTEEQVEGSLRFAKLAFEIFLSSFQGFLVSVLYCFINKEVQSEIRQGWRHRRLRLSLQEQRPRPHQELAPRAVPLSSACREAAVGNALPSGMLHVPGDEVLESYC
UniProt P35372, sequence (whole entry, looked up): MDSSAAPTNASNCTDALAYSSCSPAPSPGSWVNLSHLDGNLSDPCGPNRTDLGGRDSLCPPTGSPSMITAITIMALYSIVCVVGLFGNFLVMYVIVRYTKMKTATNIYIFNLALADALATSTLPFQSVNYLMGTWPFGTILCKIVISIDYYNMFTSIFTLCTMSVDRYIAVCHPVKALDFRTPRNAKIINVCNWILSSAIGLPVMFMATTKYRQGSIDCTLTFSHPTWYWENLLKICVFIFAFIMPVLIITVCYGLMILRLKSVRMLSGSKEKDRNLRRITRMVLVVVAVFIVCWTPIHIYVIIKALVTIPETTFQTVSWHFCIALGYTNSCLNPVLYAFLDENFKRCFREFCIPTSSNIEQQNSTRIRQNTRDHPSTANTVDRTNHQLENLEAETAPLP
UniProt P50391, sequence (whole entry, looked up): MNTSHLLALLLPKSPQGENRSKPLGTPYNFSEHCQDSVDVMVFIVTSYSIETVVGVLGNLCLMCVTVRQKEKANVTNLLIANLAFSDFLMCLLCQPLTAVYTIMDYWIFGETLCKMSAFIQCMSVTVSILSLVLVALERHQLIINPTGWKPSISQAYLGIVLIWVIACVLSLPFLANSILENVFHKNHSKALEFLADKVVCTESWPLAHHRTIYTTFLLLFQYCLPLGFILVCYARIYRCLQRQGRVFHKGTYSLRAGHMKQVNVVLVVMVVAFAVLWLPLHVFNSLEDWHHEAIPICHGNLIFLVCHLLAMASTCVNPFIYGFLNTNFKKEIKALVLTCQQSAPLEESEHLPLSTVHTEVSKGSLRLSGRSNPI
UniProt Q04759, sequence (whole entry, looked up): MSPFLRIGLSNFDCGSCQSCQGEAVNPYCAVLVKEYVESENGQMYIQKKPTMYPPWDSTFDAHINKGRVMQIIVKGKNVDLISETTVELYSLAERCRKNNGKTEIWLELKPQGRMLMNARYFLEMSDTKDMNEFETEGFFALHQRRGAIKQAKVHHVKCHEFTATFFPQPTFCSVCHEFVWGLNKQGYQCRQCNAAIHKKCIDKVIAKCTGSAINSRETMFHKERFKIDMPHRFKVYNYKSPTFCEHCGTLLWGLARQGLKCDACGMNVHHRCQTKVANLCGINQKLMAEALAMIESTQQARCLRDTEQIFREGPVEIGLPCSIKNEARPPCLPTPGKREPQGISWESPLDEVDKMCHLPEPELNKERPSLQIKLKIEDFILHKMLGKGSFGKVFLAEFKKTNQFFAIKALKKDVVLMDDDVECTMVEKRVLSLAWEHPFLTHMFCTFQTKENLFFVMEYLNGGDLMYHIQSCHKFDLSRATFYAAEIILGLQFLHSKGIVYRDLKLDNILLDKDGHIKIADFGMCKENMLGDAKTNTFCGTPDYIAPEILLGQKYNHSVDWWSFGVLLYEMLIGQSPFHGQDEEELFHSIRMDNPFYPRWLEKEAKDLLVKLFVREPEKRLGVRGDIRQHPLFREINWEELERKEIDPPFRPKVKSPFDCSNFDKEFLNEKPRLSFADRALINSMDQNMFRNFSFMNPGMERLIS

Structure (SMILES) = CC(C)C[C@H](NC(=O)[C@H](CC(C)C)NC(=O)[C@@H](NC(=O)[C@H](Cc1ccccc1)NC(=O)[C@@H](Cc1c[nH]c2ccccc12)NC(=O)[C@@H](N)CCCCN)[C@@H](c1ccccc1)c1c[nH]c2ccccc12)C(N)=O; target = GHSR (Homo sapiens, UniProt Q92847); test = inositol phosphate, agonist, TR-FRET; EC50 = > 1000 nM
Structure (SMILES) = CC[C@H](C)[C@H](NC(=O)[C@H](CCCNC(=N)N)NC(=O)[C@@H]1CCCN1C(=O)[C@@H](NC(=O)[C@@H](NC(=O)[C@H](CCCCN)NC(=O)[C@H](CC(C)C)NC(=O)[C@H](CC(N)=O)NC(=O)[C@H](CCCCN)NC(=O)[C@@H](NC(=O)[C@H](C)NC(=O)[C@H](Cc1ccccc1)NC(=O)[C@H](CC(N)=O)NC(=O)[C@H](CCC(=O)O)NC(=O)CN)[C@@H](C)CC)[C@@H](C)O)[C@@H](C)CC)C(N)=O; target = Ecdysis triggering hormone receptor B (Aedes aegypti, UniProt A7J265); EC50 = ~48 nM
Structure (SMILES) = C[C@@H]1NC(=O)[C@H](CC(N)=O)NC(=O)[C@H](Cc2c[nH]c3ccccc23)NC(=O)[C@H](CCCNC(=N)N)NC(=O)[C@@H](Cc2ccccc2)NC(=O)[C@H](Cc2c[nH]cn2)NC(=O)[C@@H](NC(=O)[C@@H](N)Cc2ccc(O)cc2)CCCn2cc(nn2)-c2cccc(c2)-c2cn(nn2)CCC[C@@H](C(=O)N[C@@H](Cc2ccc(O)cc2)C(N)=O)NC(=O)[C@H](Cc2ccccc2)NC1=O; target = Mc1r; test = agonist; EC50 = 317 ± 9 nM
Structure (SMILES) = CSCC[C@H](NC(=O)[C@H](Cc1ccccc1)NC(=O)[C@H](Cc1c[nH]cn1)NC(=O)CNC(=O)[C@@H](NC(=O)[C@H](C)NC(=O)[C@H](Cc1c[nH]c2ccccc12)NC(=O)[C@H](CCC(N)=O)NC(=O)[C@@H]1CCCN1C(=O)[C@@H](NC(=O)[C@@H]1CCC(=O)N1)C(C)C)C(C)C)C(N)=O; target = GRPR; test = inositol phosphate, agonist; EC50 = 0.23 nM
Structure (SMILES) = CC(C)[C@H]1CC[C@H](N2CC[C@@](C)(c3cccc(O)c3)[C@@H](C)C2)CC1; target = OPRM1 (Homo sapiens, UniProt P35372); test = GTPγS binding, agonist, radiometric; EC50 = > 10000 nM
Structure (SMILES) = Cn1ccc(-c2ccc(Cn3cc(C(=O)N[C@H]4CCCC[C@@H]4O)c4c(F)cc(F)cc43)cn2)n1; target = CHRM1; test = calcium signal, agonist; EC50 = 5900 nM
Structure (SMILES) = CCN1CCN(C2=Nc3cc(Cl)ccc3Nc3ccccc32)CC1; target = CHRM3 (Homo sapiens, UniProt P20309, A239G/Y149C); test = calcium signal, agonist; EC50 = 7 nM
Structure (SMILES) = CSCC[C@H](NC(=O)[C@H](CC(C)C)NC(=O)[C@H](Cc1cnc[nH]1)NC(=O)CNC(=O)[C@@H](NC(=O)[C@H](C)NC(=O)[C@H](Cc1c[nH]c2ccccc12)NC(=O)[C@H](CCC(N)=O)NC(=O)[C@H](N)Cc1ccccc1)C(C)C)C(N)=O; target = GRPR; test = inositol phosphate, agonist; EC50 = 1.54 nM
Structure (SMILES) = CC(=O)N[C@@H](CCCNC(=N)N)C(=O)N[C@@H](CCCNC(=N)N)C(=O)N[C@@H](C(=O)N1Cc2ccccc2C[C@H]1C(N)=O)[C@@H](c1ccccc1)c1c[nH]c2ccccc12; target = Mc1r; test = cAMP, agonist, AlphaScreen; EC50 = 900 nM
Structure (SMILES) = Cc1cc(O)cc(C)c1CC(N)C(=O)NC1CCNc2c(CN3CCCCC3)cc(Cc3ccccc3)cc21 (centres unmarked); target = OPRK1 (Homo sapiens, UniProt P41145); test = GTPγS binding, agonist, radiometric; conditions = cell membranes; EC50 = 100 nM
Structure (SMILES) = CC(=O)N[C@H](CCCNC(=N)N)C(=O)N[C@@H](Cc1ccc(O)cc1)C(=O)N[C@@H](CCCNC(=N)NC(=O)NCCCCN)C(=O)N[C@@H](CC(C)C)C(=O)N[C@@H](CCCNC(=N)N)C(=O)N[C@@H](Cc1ccc(O)cc1)C(N)=O; target = NPY4R (Homo sapiens, UniProt P50391); test = β-arrestin 2 recruitment, agonist; test system = HEK293T; EC50 = 624 ± 150 nM
Structure (SMILES) = CSCC[C@H](NC=O)C(=O)N[C@@H](Cc1ccccc1)C(=O)N[C@H](C(=O)N[C@@H](Cc1ccccc1)C(=O)N[C@@H](CCC(=O)O)C(=O)N1CCC[C@H]1C(=O)N[C@@H](Cc1ccccc1)C(=O)N1CCC[C@H]1C(=O)N[C@H](C(=O)N[C@@H](CC(N)=O)C(=O)O)[C@@H](C)O)[C@@H](C)O; target = FPR1; test = receptor surface downregulation, agonist; test system = CHO cells; conditions = 1 h, 37 °C; EC50 = 6.8 ± 100 nM
Structure (SMILES) = CC(C)C[C@H](NC(=O)[C@H](CO)NC(=O)[C@H](Cc1c[nH]c2ccccc12)NC(=O)[C@H](Cc1c[nH]c2ccccc12)NC(=O)[C@H](CC(=O)O)NC(=O)[C@H](CC(C)C)NC(=O)CN)C(=O)O; target = Transcriptional regulator ComR (Streptococcus mutans serotype c, UniProt Q8DWI6); test system = Streptococcus mutans; EC50 = 440 nM
Structure (SMILES) = CCCC[C@H](NC=O)C(=O)N[C@@H](CCCC)C(=O)N[C@@H](Cc1c[nH]c2ccccc12)C(=O)N[C@@H](CCC(=O)O)C(=O)N[C@@H](CC(=O)O)C(=O)N[C@@H](Cc1c[nH]c2ccccc12)C(=O)N[C@H](C(=O)NCC(=O)N[C@@H](Cc1c[nH]c2ccccc12)C(=O)N[C@H](C(=O)O)[C@@H](C)CC)C(C)C; target = FPR1; test = receptor surface downregulation, agonist; test system = CHO cells; conditions = 1 h, 37 °C; EC50 = 60 ± 8 nM
Structure (SMILES) = CNc1nc2sc3c(N4CCNCC4)nnnc3c2c2c1CCCC2; target = uidA; test = enzyme activity, inhibitor, in-cell; test system = K12 MG1655; conditions = 24 h; EC50 = 6 nM
Structure (SMILES) = C1CCc2c(c(N3CCOCC3)nc3sc4c(N5CCNCC5)nnnc4c23)C1; target = uidA; EC50 = 74 ± 7 nM
Structure (SMILES) = c1ccc(-c2csc(Nc3nc4cc5c(cc4s3)OCO5)n2)nc1; target = CTP synthase 1 (Homo sapiens, UniProt P17812); test = enzyme activity, inhibitor, ADP detection; EC50 = 1200 nM
Structure (SMILES) = CC(=O)N[C@@H](CCCNC(=N)N)C(=O)N[C@@H](CCCNC(=N)N)C(=O)N[C@H](Cc1ccc(I)cc1)C(=O)N[C@@H](C(N)=O)[C@H](c1ccccc1)c1c[nH]c2ccccc12; target = Mc1r; test = cAMP, agonist, AlphaScreen; EC50 = 1400 nM
Structure (SMILES) = CC[C@H](C)[C@@H]1NC(=O)[C@H](Cc2ccccc2)NC(=O)[C@H](C)NC(=O)[C@@H](NC(=O)[C@@H](NC(=O)[C@H](CO)NC(=O)[C@@H](N)Cc2ccc(O)cc2)[C@@H](C)O)CSC(=O)[C@H](CCSC)NC1=O; target = agrC (Staphylococcus aureus, UniProt O07911); EC50 = 386 nM
Structure (SMILES) = C[N+]1([O-])CCN(C2=Nc3cc(Cl)ccc3Nc3ccccc32)CC1; target = CHRM3 (Homo sapiens, UniProt P20309); test = calcium signal, agonist; EC50 = > 30000 nM
Structure (SMILES) = CCc1noc(CC)c1C(=O)O[C@H]1C(C)=C[C@]23C(=O)[C@@H](C=C(CO)[C@@H](O)[C@]12O)[C@H]1[C@@H](C[C@H]3C)C1(C)C; target = PRKCQ (Homo sapiens, UniProt Q04759); test = enzyme activity, activator; EC50 = 11 nM
Structure (SMILES) = CC[C@H](C)[C@H](NC(=O)[C@H](CO)NC(=O)[C@H](Cc1ccc(O)cc1)NC(=O)[C@H](CC(=O)O)NC(=O)[C@H](CO)NC(=O)[C@@H](NC(=O)[C@H](Cc1ccccc1)NC(=O)[C@@H](NC(=O)CNC(=O)[C@H](CCC(=O)O)NC(=O)C(C)(C)NC(=O)[C@@H](N)Cc1ccc(O)cc1)[C@@H](C)O)[C@@H](C)CC)C(=O)N[C@@H](C)C(=O)N[C@@H](CCSC)C(=O)N[C@@H](CC(=O)O)C(=O)N[C@@H](CCCCN)C(=O)N[C@H](C(=O)N[C@@H](Cc1c[nH]cn1)C(=O)N[C@@H](CCC(N)=O)C(=O)N[C@@H](CCC(N)=O)C(=O)N[C@@H](CC(=O)O)C(=O)N[C@@H](Cc1ccccc1)C(=O)N[C@H](C(=O)N[C@@H](CC(N)=O)C(=O)N[C@@H](Cc1c[nH]c2ccccc12)C(=O)N[C@@H](CC(C)C)C(=O)N[C@@H](CC(C)C)C(=O)N[C@@H](C)C(=O)N[C@@H](CCC(N)=O)C(=O)N[C@@H](CCCCN)C(=O)NCC(=O)N[C@@H](CCCCN)C(=O)N[C@@H](CCCCN)C(=O)N[C@@H](CC(N)=O)C(=O)N[C@@H](CC(=O)O)C(=O)N[C@@H](Cc1c[nH]c2ccccc12)C(=O)N[C@@H](CCCCN)C(=O)N[C@@H](Cc1c[nH]cn1)C(=O)N[C@@H](CC(N)=O)C(=O)N[C@H](C(=O)N[C@H](C(=O)N[C@@H](CCC(N)=O)C(=O)O)[C@@H](C)O)[C@@H](C)CC)C(C)C)[C@@H](C)CC; target = Gastric inhibitory polypeptide receptor (Mus musculus, UniProt Q0P543); test = reporter gene, agonist, luciferase; EC50 = 0.0117 nM
Structure (SMILES) = C1CCN(c2nnnc3c2sc2nc(N4CCOCC4)c4c(c23)CCCC4)CC1; target = uidA; EC50 = > 10000 nM
Structure (SMILES) = CC1(CCN2CCc3ccccc3C2)Cc2cc(Cl)ccc2C1=O (single isomer, unassigned); target = HTR7 (Homo sapiens, UniProt P34969); test = β-arrestin recruitment, agonist; EC50 = 158 nM
Structure (SMILES) = C[N+](C)(CC#CCOC1=NOCC1)CCCCCCNC(=O)CCOCCOCCOCCOCCNC(=O)CCCC(=O)NCCCCC(C(=O)O)N(CC(=O)O)CC(=O)O (centres unmarked); target = CHRM1; test = calcium response, agonist, fluorescence calcium imaging; test system = primary rat cortical astrocytes; EC50 = 340 nM
Structure (SMILES) = NCCc1ccccc1; target = TAAR1 (Homo sapiens, UniProt Q96RJ0); test = cAMP, agonist, luciferase; EC50 = 81.3 nM
Structure (SMILES) = CC[C@H](C)[C@@H]1NC(=O)[C@H](CCCNC(=N)N)NC(=O)[C@H](CC(=O)O)NC(=O)[C@H](CC(C)C)NC(=O)[C@H](CCCCN)NC(=O)[C@H](CC(C)C)NC(=O)CNC(=O)[C@H](Cc2ccccc2)NC(=O)[C@@H](NC(=O)CNC(=O)[C@H](CCCCN)NC(=O)[C@H](CO)NC(=O)[C@H](CC(C)C)NC(=O)CNC(=O)[C@H](CCCCN)NC(=O)[C@H](CCCCN)NC(=O)[C@H](CCC(N)=O)NC(=O)[C@H](C)NC(=O)CNC(=O)[C@H](CCCCN)NC(=O)[C@H](Cc2ccc(O)cc2)NC(=O)[C@H](CCCCN)NC(=O)[C@H](CCCNC(=N)N)NC(=O)[C@H](C)NC(=O)[C@H](CCC(N)=O)NC(=O)[C@@H]2CCCN2C(=O)[C@H](Cc2c[nH]cn2)NC(=O)[C@H](CCC(=O)O)NC(=O)[C@H](CCC(N)=O)NC(=O)[C@@H](N)CC(C)C)CSSC[C@@H](C(=O)O)NC(=O)CNC(=O)[C@H](CC(C)C)NC(=O)CNC(=O)[C@H](CO)NC(=O)[C@H](CCSC)NC(=O)[C@H](CO)NC(=O)CNC1=O; target = Atrial natriuretic peptide receptor 2 (Npr2, Mus musculus, UniProt Q6VVW5); test = guanylate cyclase activity, agonist, HTRF, refers to: cGMP; test system = NIH3T3; conditions = 30 min, 37 °C; EC50 = 3 nM
Structure (SMILES) = CSCC[C@H](NC(=O)[C@H](CC(C)C)NC(=O)[C@H](CO)NC(=O)CNC(=O)[C@@H](NC(=O)[C@H](C)NC(=O)[C@H](Cc1c[nH]c2ccccc12)NC(=O)[C@H](CC(C)C)NC(=O)[C@@H]1CCC(=O)N1)C(C)C)C(N)=O; target = GRPR; test = inositol phosphate, agonist; EC50 = 89.1 nM
Structure (SMILES) = C[C@@H]1NC(=O)[C@H](CC(N)=O)N2C[C@H](Cc3c[nH]c4ccccc34)NC(=O)[C@H](CSCC2=O)NC(=O)[C@H](CCCNC(=N)N)NC(=O)[C@@H](Cc2ccccc2)NC(=O)[C@H](Cc2c[nH]cn2)NC(=O)[C@@H](NC(=O)[C@@H](N)Cc2ccc(O)cc2)CSSC[C@@H](C(=O)N[C@@H](Cc2ccc(O)cc2)C(N)=O)NC(=O)[C@H](Cc2ccccc2)NC1=O; target = Mc1r; test = reporter gene, agonist; EC50 = 68.8 nM

Excerpt of the above:
Structure (SMILES) = CSCC[C@H](NC(=O)[C@H](CC(C)C)NC(=O)[C@H](CO)NC(=O)CNC(=O)[C@@H](NC(=O)[C@H](C)NC(=O)[C@H](Cc1c[nH]c2ccccc12)NC(=O)[C@H](CC(C)C)NC(=O)[C@@H]1CCC(=O)N1)C(C)C)C(N)=O; target = GRPR; test = inositol phosphate, agonist; EC50 = 89.1 nM
Structure (SMILES) = C1CCc2c(c(N3CCOCC3)nc3sc4c(N5CCNCC5)nnnc4c23)C1; target = uidA; EC50 = 74 ± 7 nM
Structure (SMILES) = C[N+](C)(CC#CCOC1=NOCC1)CCCCCCNC(=O)CCOCCOCCOCCOCCNC(=O)CCCC(=O)NCCCCC(C(=O)O)N(CC(=O)O)CC(=O)O (centres unmarked); target = CHRM1; test = calcium response, agonist, fluorescence calcium imaging; test system = primary rat cortical astrocytes; EC50 = 340 nM
